{"data": "Measured values of several laboratories", "note": "Each numbered part is a random draw from the data of one study; scales do not carry over between parts. Positions count from the first letter of the parent shown."}
{"data": "Series 1", "target": "CCNB1, cyclin fold, Cln2 fusion (human)", "technique": "yeast growth competition, sequencing", "matrix": "yeast", "notes": "weak parent motif", "baseline": "not given", "direction": "higher = stronger binding", "starting sequence": "SLBP docking peptide (human); ARYKRKLLINDFG"}
{"Substitution": "ARYKRKLLINDGG [F12G]", "normalised enrichment score": 1.03}
{"Substitution": "ARYKRKLLIEDFG [N10E]", "normalised enrichment score": 0.738}
{"Substitution": "ACYKRKLLINDFG [R2C]", "normalised enrichment score": 0.244}
{"Substitution": "ALYKRKLLINDFG [R2L]", "normalised enrichment score": 0.53}
{"Substitution": "ARSKRKLLINDFG [Y3S]", "normalised enrichment score": 1.06}
{"Substitution": "ARYTRKLLINDFG [K4T]", "normalised enrichment score": 0.26}
{"data": "Series 2", "target": "Interferon regulatory factor 5, full length, phosphomimetic (IRF5, Homo sapiens, UniProt Q13568-2, residues 1-514, S451D/S453D/S456D/S462D)", "technique": "protein-binding microarray", "form": "double-stranded DNA, one strand shown", "matrix": "in vitro", "tested at": "940 nM top", "notes": "60-bp whole probe", "together with": "salmon DNA 0.4 mg/ml", "baseline": "random background probes", "direction": "higher = stronger binding", "constant ends, left off below": "GCCTAGCAC … GTCTTGATTCGCTTGACGCTGCTG"}
{"Strand": "CACTCTCTGCTTGTGTCTGGGTGCTAG", "fitted relative affinity [z-score]": 2.77}
{"Strand": "GACGTACTGGGTTTCGGGACGTGCTAG", "fitted relative affinity [z-score]": 2.89}
{"Strand": "TTAGATCTCGGTATCGGTTAGTGCTAG", "fitted relative affinity [z-score]": 5.53}
{"Strand": "GACGAACTGGGGCATCGAGACGTGCTA", "fitted relative affinity [z-score]": -0.04}
{"Strand": "TTAGGTTTCGGGACTAGGTTAGTGCTA", "fitted relative affinity [z-score]": 7.76}
{"Strand": "GACGGACTGGGACTGGGTACGTGCTAG", "fitted relative affinity [z-score]": -0.676}
{"Strand": "TTAGGTTTCCTACTGTTTTAGTGCTAG", "fitted relative affinity [z-score]": 0.816}
{"Strand": "TCAGGTTGAACATGAACACTGTGCTAG", "fitted relative affinity [z-score]": -0.468}
{"data": "Series 3", "target": "POU, POU domain (Salpingoeca helianthica)", "technique": "Spec-seq", "form": "double-stranded DNA, one strand shown", "matrix": "in vitro", "tested at": "not given", "notes": "whole probe, mean of replicates", "baseline": "not given", "direction": "lower = stronger binding", "constant ends, left off below": "GAGTCGTCTCGTCAGCACA … CCGTAGAGCACTCAGGTC", "Construct (chain)": "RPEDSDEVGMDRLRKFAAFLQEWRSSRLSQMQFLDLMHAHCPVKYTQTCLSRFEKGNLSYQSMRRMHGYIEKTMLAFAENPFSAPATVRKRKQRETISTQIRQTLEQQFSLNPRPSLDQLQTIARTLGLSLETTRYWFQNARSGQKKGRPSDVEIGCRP"}
{"Strand": "TGTTCAT", "relative binding energy": "1.04 ln ratio"}
{"Strand": "TGCCTTG", "relative binding energy": "1.2 ln ratio"}
{"Strand": "TGCCTAT", "relative binding energy": "1.25 ln ratio"}
{"Strand": "TATATAT", "relative binding energy": "0.493 ln ratio"}
{"Strand": "TGCCGGA", "relative binding energy": "1.66 ln ratio"}
{"Strand": "CCCTAAT", "relative binding energy": "0.614 ln ratio"}
{"data": "Mixed results"}
{"Substance": "PhoQ, residues 284 288 289 292 302 303 SLCLSL", "target": "PhoP, residues 12 14 15 18 19 LWHCS (Escherichia coli, UniProt P23836)", "assay": "Sort-seq, refers to: YFP reporter", "system": "E. coli", "conditions": "PhoQ-PhoP variant library, together with: 10 µM Mg2+", "scale": "baseline: high Mg2+ state, higher = stronger signaling", "quantity": "fold induction", "result": 2.79}
{"note": "Some of these lines once more (series 1):"}
{"Substitution": "ACYKRKLLINDFG [R2C]", "normalised enrichment score": 0.244}
